Experimental data of several laboratories.
Parts stem from different laboratories: compare values within a part only.

Series 1
Target: Prothrombin, mature alpha-thrombin (F2, Homo sapiens, UniProt P00734)
Technique: aptamer microarray, sandwich
Form: DNA with 2'F-ANA
Matrix: in vitro
Concentration: 200 nM
Notes: whole 15-mer aptamer, many near background
Together with: Cy3 exosite-II aptamer, 400 nM
Reading: higher = stronger binding
Sequence: GGTTGGTGTGGTTGG
| Modification | mean fluorescence intensity |
| --- | --- |
| 2'F-ANA at 3 4 6 9 11 13 | 451 a.u. |
| 2'F-ANA at 2 3 5 10 11 12 | 65.2 a.u. |
| 2'F-ANA at 3 4 7 8 9 10 13 14 | 272 a.u. |
| 2'F-ANA at 1 2 3 10 12 | 94 a.u. |
| 2'F-ANA at 2 3 4 6 7 8 9 13 15 | 362 a.u. |
| 2'F-ANA at 1 3 5 6 7 11 | 54.3 a.u. |

Series 2
Target: Histone acetyltransferase KAT6A, both winged helices, GST fusion (KAT6A, Homo sapiens, UniProt Q92794, residues 1-181)
Technique: protein binding microarray
Form: double-stranded DNA, one strand shown
Matrix: in vitro
Concentration: not given
Notes: 8-mer, flanks averaged, mean of 2 arrays, mostly near background
Baseline: not given
Reading: higher = stronger binding
Target sequence (chain): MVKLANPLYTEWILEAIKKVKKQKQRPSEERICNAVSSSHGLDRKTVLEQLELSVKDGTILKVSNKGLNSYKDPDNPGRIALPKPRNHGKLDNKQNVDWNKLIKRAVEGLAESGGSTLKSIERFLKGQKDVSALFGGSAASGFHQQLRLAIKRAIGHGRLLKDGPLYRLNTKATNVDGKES
| Sequence | E-score |
| --- | --- |
| CATTTTTA | 0.0255 |
| GCAGGGAC | -0.0553 |
| CAACCAAG | -0.141 |
| GTCCGTCA | 0.132 |
| GAACGTTC | -0.00209 |
| ACAATGCC | 0.0487 |
| ATAACCTC | -0.11 |
| GATATAGC | 0.0569 |

Series 3
Target: Interferon regulatory factor 7, full length, phosphomimetic (IRF7, Homo sapiens, UniProt Q92985, residues 1-503, S471D/S472D/S475D/S476D/S477D/S483D/S484D/S487D)
Technique: protein-binding microarray
Form: double-stranded DNA, one strand shown
Matrix: in vitro
Concentration: 2200 nM top
Notes: 60-bp whole probe
Together with: salmon DNA 0.4 mg/ml
Baseline: random background probes
Reading: higher = stronger binding
All sequences stand within: GCCTAGCAC … GTCTTGATTCGCTTGACGCTGCTG
Residues (chain): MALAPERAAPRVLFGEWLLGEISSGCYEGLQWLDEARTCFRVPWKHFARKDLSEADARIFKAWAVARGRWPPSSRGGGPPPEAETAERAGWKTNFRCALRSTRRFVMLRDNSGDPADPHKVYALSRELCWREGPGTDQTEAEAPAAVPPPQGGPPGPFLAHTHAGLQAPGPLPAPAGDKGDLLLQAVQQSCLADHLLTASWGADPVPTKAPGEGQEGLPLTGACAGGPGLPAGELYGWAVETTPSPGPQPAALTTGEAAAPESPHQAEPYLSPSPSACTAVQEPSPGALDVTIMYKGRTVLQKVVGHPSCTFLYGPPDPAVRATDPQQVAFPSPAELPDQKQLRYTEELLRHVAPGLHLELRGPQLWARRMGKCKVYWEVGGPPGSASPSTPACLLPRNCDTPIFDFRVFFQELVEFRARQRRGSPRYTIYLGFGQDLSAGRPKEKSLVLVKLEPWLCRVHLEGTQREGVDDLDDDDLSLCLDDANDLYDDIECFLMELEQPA
| Sequence | fitted relative affinity [z-score] |
| --- | --- |
| TTAGGTTTCCTTATCATTTAGTGCTAG | 1.59 |
| TCATATGTACTCTCTCCAACTGTGCTA | 1.69 |
| TCATCTCCCATTCTGAAACTGTGCTAG | 2.03 |
| TACGGTTTCCTTTCCCTGACGTGCTAG | 4.94 |
| TTCTTAATGCTTCTGGGCCAGTGCTAG | 0.0153 |
| GACGGACTGGACTATCGCGACGTGCTA | -0.326 |
| AGACGAATCATATCAAAATTGTGCTAG | -0.806 |
| TTAGATATCGGTTTCGATTAGTGCTAG | 5.15 |
| GACGGTCTCGAACTGGGGACGTGCTAG | -0.342 |
| TTACGACTGGGGACTGGGTTAGTGCTA | 0.0176 |

Single results of other studies
| Substance | target | assay | system | setting | scale | endpoint | value |
| --- | --- | --- | --- | --- | --- | --- | --- |
| PhoQ, residues 284 288 289 292 302 303 SIHMAM | PhoP, residues 12 14 15 18 19 GHCSL (Escherichia coli, UniProt P23836) | Sort-seq, measured: YFP reporter | E. coli | PhoQ-PhoP variant library, together with: 10 µM Mg2+ | baseline: high Mg2+ state, higher = stronger signaling | fold induction | 12.1 |

Repeated from above (series 3):
| Sequence | fitted relative affinity [z-score] |
| --- | --- |
| TTCTTAATGCTTCTGGGCCAGTGCTAG | 0.0153 |
| TCATCTCCCATTCTGAAACTGTGCTAG | 2.03 |
| TTACGACTGGGGACTGGGTTAGTGCTA | 0.0176 |
| TACGGTTTCCTTTCCCTGACGTGCTAG | 4.94 |
